Measurements from different studies.
A part holds a random share of what one study measured.

Sample 1 — method: protein-binding microarray; molecule type: double-stranded DNA, one strand shown; matrix: in vitro; concentration: not given; reading: higher = stronger binding
Target: Protein max, full length (MAX, Homo sapiens, UniProt P61244-2, residues 1-151)
Notes: k-mer, scored over probes, only values ≥0.25
| Oligonucleotide | E-score |
| --- | --- |
| GCTATCAC | 0.267 |
| GCCCGCCC | 0.281 |
| CGTGTTAG | 0.388 |
| CCCATGGC | 0.294 |
| CACCACGC | 0.423 |
| CACCACGA | 0.265 |
| AACACGCA | 0.384 |
| CGCGCCCA | 0.252 |
| CACGCTTA | 0.393 |
| ACCTCGCG | 0.284 |
| CGTGCCTC | 0.356 |
| CGTCGTGC | 0.258 |
| GTGCTAGA | 0.267 |
| ATGCGTCA | 0.347 |

Sample 2 — method: protein-binding microarray; molecule type: double-stranded DNA, one strand shown; matrix: in vitro; concentration: 0.8 µM; notes: whole 60-bp probe, no competitor; reading: higher = stronger binding; all sequences stand within: … GTCTTGATTCGCTTGACGCTGCTG
Target: Centromere-binding protein 1, full length, N-terminal tag (CBF1, Saccharomyces cerevisiae, UniProt P17106, residues 1-351)
UniProt P17106, sequence (whole entry, looked up): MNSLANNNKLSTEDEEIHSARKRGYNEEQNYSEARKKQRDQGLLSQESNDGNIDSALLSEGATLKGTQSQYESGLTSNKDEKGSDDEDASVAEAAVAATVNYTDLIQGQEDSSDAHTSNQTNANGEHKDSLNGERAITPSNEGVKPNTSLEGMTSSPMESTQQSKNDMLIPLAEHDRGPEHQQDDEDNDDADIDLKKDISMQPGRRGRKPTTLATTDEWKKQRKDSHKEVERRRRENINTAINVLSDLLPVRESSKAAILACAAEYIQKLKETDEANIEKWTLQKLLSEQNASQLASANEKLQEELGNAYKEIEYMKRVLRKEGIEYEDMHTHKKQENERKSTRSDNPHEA
| Oligonucleotide | fluorescence intensity |
| --- | --- |
| GAATTTAACACATTTCTCATGATCCTAATAGAATAG | 567 a.u. |
| TGTACGAAGCTATGTTGTGTGAATATAGTAGTTAGG | 551 a.u. |
| CTATTTCATCGACATTAGGTGACGTTTCTCAGTTTC | 529 a.u. |
| GAATCCTTGAAGTAGCACATGCGTTAGGGCTAGTAG | 581 a.u. |
| CTACTGGTATAGTATCATATGAGATCTAGGAAGTTC | 571 a.u. |
| CCTAACTACTATAATCATGTCTCATAGCTTCGTACA | 551 a.u. |
| CTATGCCGAACAAATCACGGCATAACCTGCAGATTC | 519 a.u. |
| CTAACTACGCATTATCACGTAGGCATATATATGTTC | 583 a.u. |
| CCTAACTACTATAGCCACGAAAAATAGCTTCGTACA | 523 a.u. |
| GAAAGAGAAACCCGTGGGCACGTGGCTGTTATATAG | 9450 a.u. |
| CCTAACTACTATAAGTACGTGCAATAGCTTCGTACA | 490 a.u. |
| GAAGTCAAGATCTGTCATCAGTTGTTTTGCGTGTAG | 521 a.u. |
| CCTAACTACTATAACCACCATGTATAGCTTCGTACA | 501 a.u. |
| GAAACAAAACAATGCCGCACCTGAGGGAGAACATAG | 522 a.u. |
| CCTAACTACTATAGTTCCGTGAGATAGCTTCGTACA | 482 a.u. |
| CTAATCAATTCATTTAACGTGTCTGGACGGACTTTC | 540 a.u. |
| CTACAGCATTGTGGTCATGCGAGATGTCTAAGATTC | 632 a.u. |
| GAATGCATTACTACTCACGCATCCTATCACATATAG | 582 a.u. |
| GAAATGGATGCTGAACATGTGGAATACCAGTTTTAG | 587 a.u. |

Sample 3 — method: protein binding microarray; molecule type: double-stranded DNA, one strand shown; matrix: in vitro; concentration: not given; baseline: not given; reading: higher = stronger binding
Target: Histone acetyltransferase KAT6A, winged helix 2, GST fusion (KAT6A, Homo sapiens, UniProt Q92794, residues 85-181)
Notes: 8-mer, flanks averaged, mean of 2 arrays, mostly near background
Target sequence (chain): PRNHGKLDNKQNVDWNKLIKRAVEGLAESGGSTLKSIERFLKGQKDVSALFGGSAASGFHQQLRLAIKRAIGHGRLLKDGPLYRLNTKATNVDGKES
| Oligonucleotide | E-score |
| --- | --- |
| AAGTAATG | -0.033 |
| AAAGGCCC | -0.0553 |
| CATCCCCC | -0.162 |
| CACCCTAC | -0.154 |
| AGCTCAAC | -0.126 |
| GTTTGGTA | 0.00314 |
| ATGTTACA | 0.103 |
| ACCTTCGG | 0.17 |
| AATTTACC | -0.128 |
| GCTCTGCC | 0.0371 |
| AATATATT | 0.196 |
| ATACCTAA | -0.0292 |
| CGAAGTCG | -0.02 |
| CATGGAAC | -0.0162 |
| GACAACGA | -0.0767 |
| GGAAGCCA | -0.101 |
| CTTTCACC | -0.18 |
| ACTAACCT | 0.0124 |

Sample 4 — method: protein-binding microarray; molecule type: double-stranded DNA, one strand shown; matrix: in vitro; concentration: 250 nM; notes: 60-bp whole probe; together with: salmon DNA 0.4 mg/ml; baseline: random background probes; reading: higher = stronger binding; all sequences stand within: GCCTAGCAC … GTCTTGATTCGCTTGACGCTGCTG
Target: Interferon regulatory factor 7, full length, phosphomimetic (IRF7, Homo sapiens, UniProt Q92985, residues 1-503, S101K/S471D/S472D/S475D/S476D/S477D/S483D/S484D/S487D)
Residues (chain): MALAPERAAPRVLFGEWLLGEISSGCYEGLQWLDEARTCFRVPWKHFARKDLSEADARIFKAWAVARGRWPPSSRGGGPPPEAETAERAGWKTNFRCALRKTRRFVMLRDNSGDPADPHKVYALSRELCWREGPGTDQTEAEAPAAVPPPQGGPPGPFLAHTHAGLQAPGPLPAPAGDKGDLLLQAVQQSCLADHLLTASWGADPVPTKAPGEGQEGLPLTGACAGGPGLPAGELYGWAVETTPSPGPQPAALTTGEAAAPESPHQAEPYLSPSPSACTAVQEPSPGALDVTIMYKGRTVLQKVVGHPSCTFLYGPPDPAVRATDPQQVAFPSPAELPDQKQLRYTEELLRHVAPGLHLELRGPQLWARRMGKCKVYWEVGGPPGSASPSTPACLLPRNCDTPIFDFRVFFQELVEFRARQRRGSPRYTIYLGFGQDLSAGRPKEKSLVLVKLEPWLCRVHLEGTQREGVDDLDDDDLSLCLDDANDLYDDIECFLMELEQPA
| Oligonucleotide | log fluorescence [z-score] |
| --- | --- |
| GACCATATCAGACTGGAGACGTGCTAG | 0.149 |
| CTGTTTTTGCTTTCTTTATGGTGCTAG | 3.33 |
| TCATCTCTGAAGACTCTCACTGTGCTA | 0.379 |
| GTAAGTTTCACTTTCCAAAGGTGCTAG | 9.99 |
| TCATTCTTGGGACTCACACTGTGCTAG | 0.901 |
| TTAGGACTGCTTAACCTTTAGTGCTAG | 0.21 |
| GACGGTATAGGGTATCGGGACGTGCTA | -0.375 |
| GATGGTATCGACTTTCGGGACGTGCTA | 1.53 |
| TCACTTTCCACTTTCTTACTGTGCTAG | 3.55 |
| TCAAGTTTCTCCTTTCCACTGTGCTAG | 2.51 |
| GACGAACTGGGTATCGGGACGTGCTAG | -0.16 |
| GACGGTCTCGTTATCCTGACGTGCTAG | 3.43 |
| TTAGGTCTCGGTTTCGGTTAGTGCTAG | 10.7 |
| TCTTTTTGCTTTCTTTATGCGTGCTAG | 2.23 |
| TTCAGTTTTCTTTTCCATTTGTGCTAG | 3.66 |
| TCAACCTTGAACTTCGGACTGTGCTAG | -0.21 |
| TTAGGTTTCGATTCCGGTTAGTGCTAG | 12.6 |

Sample 5 — method: RNA Bind-n-Seq; molecule type: RNA; matrix: in vitro; concentration: 365 nM; baseline: no-protein control; reading: higher = stronger binding
Target: RNA binding protein fox-1 homolog 2, RRM domain, GST-SBP tag (RBFOX2, Homo sapiens, UniProt O43251-10, residues 100-194)
Notes: natural RNA segment, single round, ends assumed
All sequences stand within: GGGAGUUCUACAGUCCGACGAUC … UGGAAUUCUCGGGUGCCAA
Target sequence (chain): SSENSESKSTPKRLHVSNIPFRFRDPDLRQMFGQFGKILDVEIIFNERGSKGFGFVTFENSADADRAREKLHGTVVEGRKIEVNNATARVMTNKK
| Oligonucleotide | RBNS enrichment (R) |
| --- | --- |
| UGAUAAAGAAAAUGAUAAAUUUUCUGUUGUGCAUUCAAUUCUUAUUUUAAAUAAGACUAAGUAUAGGCAUUGUACCUGACAUUGCUACGUUUCUACCAGUGUUUCAAUUU | 0.582 |
| GGGCUACUUCAGGCCCUUCUGUGUGUUGCCUGGCAGGAUACCUUGUCCAACCAGCUACCCACCUCAACUCCCCUGUAGUUUAGGACACAAAACAGCUACCAGCGGUACAG | 0.22 |
| GAUUCACUCGUGUGCACGGAGGGGGUGCUCCAGAUGGGAAUCACACAGGGCUUUCUUCACUCUUGGUCUUCGUUUCUGAUCAAGUAAACACCAGCAGUUGUCAUUCAGUG | 0.57 |
| UCAACAGACACAGGCCUGGUACCUGGGAUAAAGUUGCAGCGUCCCACCAUCCACCAGACAGACCACCUGACCCCUUCUCAACUCUGUAACAUGGACGCAACCUCAACCCA | 0.665 |
| GUGAUUGUGACCCAUGAGUGGAGGAACUUUCAGUUCUAAAGCUGAUAAAGUGUGUAGCCAGAAGAGUACUUUUUUUUUUGUAACCACUGUCUUGAUGGCAAAAUAAUUAU | 0.641 |
| GGAUCCUGUAGGCCCUGGGAGGGGGUCCCCUUUGUGAAAUAUCAAUGCUGUUUGGGGCCCUCCCCCCAAGACUUCUCUCACUUGUUGAGUCUGUGUGCUCUCGCAAUGUU | 0.278 |
| GUUUUUAAUCUGUAUAUACUGUCUGUUUAUAGUGUGGGCAGUGAGUAAGCUGUAGCUUUGAGUUGCAAAGAAGUCACAGGAAAGAACCAUUUGGGUUUCUGAAGUACAAG | 0.701 |
| CUUCUGAGUUCCUGCUGAUGUUACAAGGGACCACACUUUUGAGAAUCUGUGCUUUAAGCUAAGGAAAUAUUGCCUGGUGGGUUGGCUGCCUGGUAUUGGGCAUGGAAAUU | 1.52 |

A few entries again (sample 4):
| Oligonucleotide | log fluorescence [z-score] |
| --- | --- |
| GACGAACTGGGTATCGGGACGTGCTAG | -0.16 |
| GACCATATCAGACTGGAGACGTGCTAG | 0.149 |
| GTAAGTTTCACTTTCCAAAGGTGCTAG | 9.99 |
| GACGGTATAGGGTATCGGGACGTGCTA | -0.375 |
| CTGTTTTTGCTTTCTTTATGGTGCTAG | 3.33 |
| TCATCTCTGAAGACTCTCACTGTGCTA | 0.379 |
| TCACTTTCCACTTTCTTACTGTGCTAG | 3.55 |
| GATGGTATCGACTTTCGGGACGTGCTA | 1.53 |
| TCTTTTTGCTTTCTTTATGCGTGCTAG | 2.23 |
| TTAGGTTTCGATTCCGGTTAGTGCTAG | 12.6 |
| TCAACCTTGAACTTCGGACTGTGCTAG | -0.21 |
| GACGGTCTCGTTATCCTGACGTGCTAG | 3.43 |
